Measured values gathered from unrelated publications.
Protocols differ between the studies behind these lines. ± marks the error that the study gave.
GRM2: Metabotropic glutamate receptor 2 (GRM2, Homo sapiens, UniProt Q14416)
Chain of UniProt Q14416 (whole entry, looked up): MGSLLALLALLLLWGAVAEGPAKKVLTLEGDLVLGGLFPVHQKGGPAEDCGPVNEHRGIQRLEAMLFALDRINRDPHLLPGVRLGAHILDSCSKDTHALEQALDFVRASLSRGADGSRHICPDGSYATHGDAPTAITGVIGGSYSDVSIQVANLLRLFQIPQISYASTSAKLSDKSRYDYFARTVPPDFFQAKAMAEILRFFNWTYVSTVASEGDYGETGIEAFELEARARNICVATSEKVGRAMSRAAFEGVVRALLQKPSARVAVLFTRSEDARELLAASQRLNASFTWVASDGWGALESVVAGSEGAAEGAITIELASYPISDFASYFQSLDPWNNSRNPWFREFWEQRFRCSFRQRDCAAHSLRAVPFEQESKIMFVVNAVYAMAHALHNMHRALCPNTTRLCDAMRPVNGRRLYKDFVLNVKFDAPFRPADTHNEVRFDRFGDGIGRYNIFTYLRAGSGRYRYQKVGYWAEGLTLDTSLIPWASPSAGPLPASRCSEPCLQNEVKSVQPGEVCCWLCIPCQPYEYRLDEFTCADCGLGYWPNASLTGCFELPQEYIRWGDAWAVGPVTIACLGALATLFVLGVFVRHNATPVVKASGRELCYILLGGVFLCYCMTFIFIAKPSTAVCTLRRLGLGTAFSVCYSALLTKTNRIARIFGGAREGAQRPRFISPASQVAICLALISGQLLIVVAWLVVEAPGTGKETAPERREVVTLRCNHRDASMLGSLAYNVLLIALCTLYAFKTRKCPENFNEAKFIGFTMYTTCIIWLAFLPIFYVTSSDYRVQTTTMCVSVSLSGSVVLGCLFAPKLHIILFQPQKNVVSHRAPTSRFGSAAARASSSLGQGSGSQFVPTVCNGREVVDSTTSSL
CDK2 with cyclin A: Cyclin-dependent kinase 2, with cyclin A (CDK2, Homo sapiens, UniProt P24941)
Chain of UniProt Q8ILG2 (whole entry, looked up): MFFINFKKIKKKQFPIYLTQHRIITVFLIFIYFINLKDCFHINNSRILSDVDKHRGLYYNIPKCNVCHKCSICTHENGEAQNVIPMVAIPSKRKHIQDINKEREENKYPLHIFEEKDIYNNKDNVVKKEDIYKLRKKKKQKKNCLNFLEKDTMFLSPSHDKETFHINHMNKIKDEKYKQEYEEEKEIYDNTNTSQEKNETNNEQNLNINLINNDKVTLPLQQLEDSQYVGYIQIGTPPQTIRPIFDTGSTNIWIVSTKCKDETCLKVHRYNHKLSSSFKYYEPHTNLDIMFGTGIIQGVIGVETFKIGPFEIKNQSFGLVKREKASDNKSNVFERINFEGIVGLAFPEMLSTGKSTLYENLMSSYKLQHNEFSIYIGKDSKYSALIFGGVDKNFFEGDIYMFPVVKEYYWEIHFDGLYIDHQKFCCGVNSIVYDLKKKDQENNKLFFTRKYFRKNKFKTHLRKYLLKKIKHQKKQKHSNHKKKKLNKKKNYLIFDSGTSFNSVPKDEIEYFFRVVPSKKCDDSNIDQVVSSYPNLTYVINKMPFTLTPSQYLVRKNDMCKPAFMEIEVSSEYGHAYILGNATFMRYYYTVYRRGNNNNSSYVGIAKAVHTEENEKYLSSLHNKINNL
Chain of UniProt Q9HC97 (whole entry, looked up): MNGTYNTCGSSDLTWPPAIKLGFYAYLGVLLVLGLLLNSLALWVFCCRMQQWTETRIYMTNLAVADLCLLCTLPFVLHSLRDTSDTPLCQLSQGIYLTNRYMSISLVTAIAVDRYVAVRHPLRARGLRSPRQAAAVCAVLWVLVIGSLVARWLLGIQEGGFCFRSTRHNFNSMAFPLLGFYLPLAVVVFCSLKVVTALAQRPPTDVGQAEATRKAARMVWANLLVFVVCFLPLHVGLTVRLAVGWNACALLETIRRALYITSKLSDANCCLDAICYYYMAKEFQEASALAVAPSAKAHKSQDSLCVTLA

For `Cc1ccc(Oc2ccc(-c3ccn4c(CC5CC5)nnc4c3C(F)(F)F)cc2F)c(C)n1`, the EC50 was 9 nM (GRM2; GTPγS binding, positive allosteric modulator; added: EC20 glutamate).
`O=C(O)COc1ccccc1/C=N/NC(=O)CNc1ccc(Cl)cc1` gave a seizure severity of 2.4 ± 0.52 (Racine scale 0-5; male mice, pilocarpine-induced seizures; oral, 20 mg/kg, 2 h after pilocarpine, unit not given, added: pilocarpine 300 mg/kg i.p.; higher = more severe).
For `O=C(Nc1nc2ccc(-c3cccc4[nH]ccc34)cn2n1)C1CCCCC1`, the IC50 was over 100000 nM (CDK2 with cyclin A; enzyme activity, inhibitor).
`O=C(O)COc1ccc(Br)cc1C=NNC(=O)Cc1ccccc1` (mixture of isomers) has a seizure severity of 1.6 ± 0.7 (Racine scale 0-5; male mice, pilocarpine-induced seizures; oral, 20 mg/kg, 1.5 h after pilocarpine, unit not given, added: pilocarpine 300 mg/kg i.p.; higher = more severe).
`CNC(=O)NC1=CC(=O)CC(C)(C)C1` gave an IC50 of over 100000 nM (crk3 (Leishmania mexicana, UniProt O15851); enzyme activity, inhibitor, radiometric).
The EC50 of `FC(F)(F)c1c(-c2ccc3c(ccn3-c3cccnc3)c2)ccn2c(CC3CC3)nnc12` is reported as 135 nM (GRM2; agonist; no glutamate).
`Cc1nc(C#N)cnc1Cl` gave a ΔTm of 1.43 °C (Cellular tumor antigen p53, DNA-binding domain (TP53, Homo sapiens, UniProt P04637, M133L/N239Y/N268D/V203A/Y220C); differential scanning fluorimetry; 1 mM, 10 min, 20 °C).
`CC(C)C[C@H](NC(=O)[C@@H](NC(=O)[C@H](CCONC(=N)N)NC(=O)OCc1ccccc1)C(C)C)[C@@H](O)CC(=O)NCCc1ccccc1` gave an IC50 of over 99000 nM (Plasmepsin IX (Plasmodium falciparum, UniProt Q8ILG2); enzyme activity, inhibitor).
The EC50 of `CCCCn1ccn2c(-c3ccc(Oc4ccnc(C)c4)c(F)c3)c(C)nc2c1=O` is reported as 24 nM (GRM2; GTPγS binding, positive allosteric modulator; added: EC20 glutamate).
With `O=C(N[C@@H](CC1CCCCC1)C(=O)N[C@@H](C[C@@H]1CCNC1=O)C(O)S(=O)(=O)O)OCc1cccc(Cl)c1` (stereo partly drawn) the IC50 was 150 nM (Replicase polyprotein 1ab, main protease (Feline coronavirus, UniProt Q98VG9); enzyme activity, inhibitor, FRET).
With `O=C(O)c1cc(O)ccc1O` the EC50 was over 500000 nM (GPR35 (Homo sapiens, UniProt Q9HC97); β-arrestin recruitment, agonist).
With `Cc1cccc(-c2ccc3nc(NC(=O)C4CCOCC4)nn3c2)c1` the IC50 was over 100000 nM (CDK2 with cyclin A; enzyme activity, inhibitor).
